Experimental data gathered from unrelated publications.
Each numbered part is a random draw from the data of one study; scales do not carry over between parts. Changes are numbered by the printed parent chain.

Series 1 — target: CCNF, cyclin fold, Cln2 fusion (human); method: yeast growth competition, sequencing; matrix: yeast; setting: strong parent motif; reference: not given; direction: higher = stronger binding
Parent: RB1 docking peptide (human); PKPLKKLRFDIEG
Substitution	normalised enrichment score
L4Y	1.82
I11N	2.1
E12W	2.03
K2G	0.0921

Series 2 — method: protein-binding microarray; molecule type: double-stranded DNA, one strand shown; matrix: in vitro; tested at: not given; direction: higher = stronger binding
Target: TATA-box-binding protein 1 (TBP1, Arabidopsis thaliana, UniProt P28147, residues 1-200, full length assumed)
Setting: k-mer, scored over probes, only values ≥0.25
Residues (chain): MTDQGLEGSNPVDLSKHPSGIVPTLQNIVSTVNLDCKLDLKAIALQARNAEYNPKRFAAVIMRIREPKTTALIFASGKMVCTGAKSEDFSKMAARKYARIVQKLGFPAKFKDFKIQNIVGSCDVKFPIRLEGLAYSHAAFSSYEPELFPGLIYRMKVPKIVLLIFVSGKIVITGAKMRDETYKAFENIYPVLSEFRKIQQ
Sequence	E-score
TATCAAA	0.298
AGAATAT	0.306
GGTAATA	0.372
AAATATA	0.472

Series 3 — target: CREB3, bZIP domain (human); method: DHFR protein complementation; matrix: yeast; reference: wild-type JUN-FOS pair; direction: higher = stronger binding
Setting: single substitutions, most at no-binding floor
Parent: JUN, bZIP domain (human); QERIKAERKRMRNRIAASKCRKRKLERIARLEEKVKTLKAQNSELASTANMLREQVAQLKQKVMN; partner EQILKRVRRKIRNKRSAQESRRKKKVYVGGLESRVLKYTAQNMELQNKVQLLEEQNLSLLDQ
Substitution	binding fitness
S47L	-1.48 natural log
R30P	-1.52 natural log
Q55P	-1.45 natural log
R53T	-1.39 natural log
K34L	-1.39 natural log

Mixed results
Substance	target	assay	system	conditions	scale	quantity	value
PhoQ, residues 284 288 289 292 302 303 SSTMSV	PhoP, residues 12 14 15 18 19 LWHVM (Escherichia coli, UniProt P23836)	Sort-seq, measured: YFP reporter	E. coli	PhoQ-PhoP variant library, with: 10 µM Mg2+	reference: high Mg2+ state, higher = stronger signaling	fold induction	13.4

Excerpt of the above (series 2):
Sequence	E-score
GGTAATA	0.372
AAATATA	0.472
